# Measured values of several laboratories.
# Every numbered part comes from another study and shows a few of its results, in no order.

# Set 1
# Target: Fragile X messenger ribonucleoprotein 1, C-terminal low-complexity region (Fmr1, Mus musculus, UniProt P35922)
# Method: RNA Bind-n-Seq
# Form: RNA
# Matrix: in vitro
# Tested at: 200 nM
# Setting: whole 134-nt RNA, ends assumed
# Together with: 150 mM KCl
# Relative to: input library
# Reading: higher = stronger binding
# Constant ends, left off below: GGGAGUUCUACAGUCCGACGAUC … UGGAAUUCUCGGGUGUCAAGG
Sequence,log2 enrichment
GUCCUGUGCUACACAUCGUAUGUACCGAAUCGGGUUUUUGGGUUUUUGGGAAAAAGGGAAAGUAUUAUGUUACGCCGUUCGGAUCUGCAC,-0.235
CUGUGCUACACAUCGUAUGUACCGAAUCGGGGUUUUUUGGGGUUUUUUGGGGUUUUUUGGGAAAGUAUUAUGUUACGCCGUUCGGAUCUG,-0.174
UUUAUCAUGAGGAGCUCAACGCGCCCAUACGGAGAAACAAAGAAGAGCCCAAGGCCCGGCCCUUGAGAGUAGGUGACACGGAGAAGCCAG,-0.446
CAAGUCCUGUGCUACACAUCGUAUGUACCGAAUCGGGGUUUGGUUUGGUUUGGGGAAAGUAUUAUGUUACGCCGUUCGGAUCUGCACUUC,0.0328
CAAGUCCUGUGCUACACAUCGUAUGUACCGAAUCGGGUGGGAAAAAGGGUUUGGGAAAGUAUUAUGUUACGCCGUUCGGAUCUGCACUUC,1.06
UCCUGUGCUACACAUCGUAUGUACCGAAUCGGGUUUUUGGGGUUUUUGGGGUUUUUGGGGAAAGUAUUAUGUUACGCCGUUCGGAUCUGC,0.606
GUCCUGUGCUACACAUCGUAUGUACCGAAUCGGGAAAAGGGGAAAAGGGGAAAAGGGGAAAGUAUUAUGUUACGCCGUUCGGAUCUGCAC,0.244
AAGUCCUGUGCUACACAUCGUAUGUACCGAAUCGGGGCCCGGGGCCCGGCCCGGGGAAAGUAUUAUGUUACGCCGUUCGGAUCUGCACUU,-0.624
UCAAGUCCUGUGCUACACAUCGUAUGUACCGAAUCGGGCCCGGGGCCCGGCCCGGAAAGUAUUAUGUUACGCCGUUCGGAUCUGCACUUC,-1.14
CAAGUCCUGUGCUACACAUCGUAUGUACCGAAUCGGGUUUGGGAGGGAAAAAGGGAAAGUAUUAUGUUACGCCGUUCGGAUCUGCACUUC,0.789
UAACUUUAGAGGAGGAUCUGAUGGAUAUGGCAGUGGACGUGGAUUUGGGGAUGGCUAUAAUGGGUAUGGAGGAGGACCUGGAGGUGGCAG,0.227
AGUCCUGUGCUACACAUCGUAUGUACCGAAUCGGUUUGGAAAAAAAGGAAAAAAAGGAAAGUAUUAUGUUACGCCGUUCGGAUCUGCACU,-0.773
CAAGUCCUGUGCUACACAUCGUAUGUACCGAAUCGGGGUGGGGUGGGGUUUGGGGAAAGUAUUAUGUUACGCCGUUCGGAUCUGCACUUC,1.12
UGGCCCUGGUGGCAUGCGGGGAGGAAGAGGUGGCAUCAUGGAUCGUGGUGGUCCCGGUGGAAUGUUCAGAGGUGGCCGUGGUGGAGACAG,0.816

# Set 2
# Target: Histone acetyltransferase KAT6A, winged helix 1, GST fusion (KAT6A, Homo sapiens, UniProt Q92794, residues 1-85)
# Method: protein binding microarray
# Form: double-stranded DNA, one strand shown
# Matrix: in vitro
# Tested at: not given
# Setting: 8-mer, flanks averaged, mean of 2 arrays, mostly near background
# Relative to: not given
# Reading: higher = stronger binding
# Residues (chain): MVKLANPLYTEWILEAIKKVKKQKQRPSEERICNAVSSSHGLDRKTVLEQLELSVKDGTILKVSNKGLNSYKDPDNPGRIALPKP
Sequence,E-score
AGCACCGC,0.26
CGAGAGCG,0.229
ATCCCAAG,-0.18
ACGCCCTA,0.0664
TGTCGACA,-0.205
ATAACCCA,-0.189
AGCTTATA,-0.166
ATCTTGCA,-0.0563
CGAAGTAG,-0.0722
ACGTTCTA,-0.108
GAGGTTGA,-0.139
GGCATCAC,0.155
CAGCTTAC,0.0673
ACATTACT,-0.0157
ATCATCCC,-0.0474
ATTCCCAG,-0.131
CCCGCCGG,0.476

# Set 3
# Target: RING finger protein unkempt homolog, zinc fingers 1-6, GST-SBP tag (UNK, Homo sapiens, UniProt Q9C0B0, residues 30-357)
# Sequence of UniProt Q9C0B0 (30-357, looked up): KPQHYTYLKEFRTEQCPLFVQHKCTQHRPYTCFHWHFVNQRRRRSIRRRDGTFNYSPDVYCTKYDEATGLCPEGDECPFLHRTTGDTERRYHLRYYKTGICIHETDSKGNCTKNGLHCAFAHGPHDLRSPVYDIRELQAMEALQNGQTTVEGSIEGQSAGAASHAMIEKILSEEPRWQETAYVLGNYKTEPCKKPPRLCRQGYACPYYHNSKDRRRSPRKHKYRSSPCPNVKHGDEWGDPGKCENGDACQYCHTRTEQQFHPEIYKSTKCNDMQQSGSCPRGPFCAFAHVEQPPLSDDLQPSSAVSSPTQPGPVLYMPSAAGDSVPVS
# Method: RNA Bind-n-Seq
# Form: RNA
# Matrix: in vitro
# Tested at: not given
# Setting: RNA with constant flanks, ends assumed
# Relative to: input RNA pool
# Reading: higher = stronger binding
# Constant ends, left off below: GGGAGUUCUACAGUCCGACGAUC … CAACAGAGGAUUGAGCAUCA
Sequence,bound/input enrichment [ratio]
GAUUACAAGGGCCAGAAGCUAGCUGAACAGAUGUUUCAGGGAAUUAUUCUUUUUUCUGCAACCGUUGGAUUUAUCUACGGGUACGUGGCUGAACAGUUCGGGUGGACUGUCUAUAUAGUU,0.505
AAUCUUAAGCUUGCAACUGAACUCCCUGAUGCUGAACUUAGGAGGACUUUAUGGUCUUCCGCCGCUUUCCCAAAACUCAAACGGCAAGUUUUGUUGUAUGAACCUCAAGUCAACUCACCC,0.158
UACUUUCAAAGAGCCCCAAGGGCUUAAUGACCCCAUUUGUAACUGAGAAAUGAUUCUUGUUUCCGUAAUCAUUCUAUAAAUGAUACUGCUGGAUUGAUUGCCGUGGGUUGAUAGCUGGAG,0.271
CAGAAGGACCUCACGGAGUCUAAGGGAAAAAUAGUCCAGCUGGAGGGAAAGCUUGUUUCAACCGAGAAAGAAAAGAUCGAUGAAAAAUGUGAAACAGAAAAACUCUUAGAAUACAUCCAA,0.304
UUUUUUUUAAAUUUUUUUAUUUUCUUUUUGUUUGUUUCGUUUUGGGGAGGGGUAAAAGUUCUCCGCACAAGUGUUUUACAUAAUUUGUACCAAAAAAAUUACACACAAAAAAAAAAAAAG,1.08
GCCAUCAUCCCCUAUAUCCCCACUCUCAUCACGCAGCUCACACAGAAGCUGCUGGCUGUCCGUAAGAAUCCCAGUAAACCUCAUUUCAAUCACUACAUGUUUGAAGCAAUAUGCUUGUCU,0.296
CUGAGAAUCUAUCUUGAUGAAAGGAGAGAUGUCUUGGAUGACCUUGUAACCUUGCAUAAUUUCCGAAAUCAGUUCUUGCCGAAUGCACUGAGAGAAUUUUUUCGUCAUAUUCAUGCCCCU,0.152
GGGACACAUACUGUAGUAUACUAGUGGGUGGGAGGCAUGGGGGUUAAGAUUGUAUAAACCACCGAUCCUGUGUAAGUUAGAGUUGUUGCUUACAUUUCAUAUAGAGUCUCACUAUUCAUA,0.999
AACACUAGACAAAAAAAAAUCAACUGUAUUUGUAAAAAUUUACCUCAAACCAUUUAAUUUUACCGUGUGAUUGGUUAAUCCCAGGGCAUUUGGUAUGAACCAAAGUGCAUUCCUUUUUUU,2.84
GUUCUUUUAUUACUUUCAUCUAUACACUUCCAGUGUCGAAGGCUGGACAGAUCUGCUCAUUUCCGCACCUUGGCAAUUAAACAGAAUCCCCUUCUAGCAGAAGCCUAUUCGAAUUUGGGA,0.318
UUGUCACCUGCUUUCCACCAAGCACUACUCUCUUUUUGUCGAAUGUCAGCAGAUAGUCGGUCCGGAUCAGAGGUGUCUAGGAUUGCAGACAGUGAAAAAAGUGUUAUGUUAAUGCUGGGA,0.134

# Set 4
# Target: RNA binding protein fox-1 homolog 2, RRM domain, GST-SBP tag (RBFOX2, Homo sapiens, UniProt O43251-10, residues 100-194)
# Method: RNA Bind-n-Seq
# Form: RNA
# Matrix: in vitro
# Tested at: 365 nM
# Setting: natural RNA segment, single round, ends assumed
# Relative to: no-protein control
# Reading: higher = stronger binding
# Constant ends, left off below: GGGAGUUCUACAGUCCGACGAUC … UGGAAUUCUCGGGUGCCAA
# Target sequence (chain): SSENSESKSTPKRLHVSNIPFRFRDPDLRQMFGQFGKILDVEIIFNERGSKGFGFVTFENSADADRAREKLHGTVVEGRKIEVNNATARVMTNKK
Sequence,RBNS enrichment (R)
GCUGUUUGGUAUGUGAGGGUUUCAGUACAAAUGCUGCUGUCUAUUUCUGUGCACUUAACAAUGGAACCCAAACAGAAGAGAAUAAAGCCUUGAUACCAAAAUUGGGAAAG,0.592
UCAGAUAAAAAUCAGGUUGUAAGUUAUAUUGAAGACAAUUUGAUACAUAAUAAAAGAUUAUAACAGUUCUCGGGCUGAUUGCUGGUAUUGCUUUCUAAAUUAGUUUUUAG,0.526
ACAGCAGUGACUCAGAGUGAACUCGGACUGGGACAGAGCUGGACAGAUGGACGUGGUGCACGCCAACGCAGUGUCCCCUCCUAUGGUUAAUAUACUUUCGUUCCAUGGUG,1.14
UUUUCAUUGAGUUAUUUCCUCAUUCUUUUAAAAAAUAAGGGACUAUAAAUCAGUUAUGUAGUAUCUUUUGUUUUUGUAGCUGAUUCCUUAACUUUCUUGUAUGCCUCUAG,0.695
CUCCCCCUGGAUGAGACCCUGCCUUUUUUCCCUACCCUCCUGUGAGACUGUCCUGUCCAGGAAAUCUGGGGGAAGAGGAGUUGCAAUCAGGCCCCAACCCUGUAAUAGGC,0.399
GAUCUCAUUUUUUAACCCCUUCCUGUCUUGCCUGUCCCAUAGAUAAGGCCUGUGUGCUGCUCUCAUGGCCCUGGUGCACCACCUUUCUGUGAAUCUCUCCCACUGGAUCC,0.829
UUUUAAAGAUAAAACUUUACAACCUGCACAUUUGUUAUGCAUACUAAAUGGUGUGUUAAAAUUAGGGUUUCUUUGCCUCUCUACACUACACUAAUCUGCCUAAAGGUGGU,0.863
AUGCCUCUCUGGAAGCCCUAGGCUCCAGGUGCUAUCUCUGUGGGAAGCAGCUACCUAAUUGGCAGGCCAAGGAGGAGUGCUGUCUGUCCAAGAGGGGACCUGUGGCCAGA,0.291
CAGGACAUGGCAUGCUUUGUGGAUCCCCAUGAUAGUCUACAAAAGCACCCCGCCCCUCUGGGCACUGCCUGGAAGAAUCGGGAGCCUGGCCAGCCUUCAGCUCGCUCCUC,4.21
CUCUUCUCCUGUGUUCCCUUUGAGUCCAGUGUGGGACACGGUUUAACUGUCCCAGCGACAUUUCUCCAAGUGGAAAUCCUAUUUUUGUAGAUCUCCAUGCUUUGCUCUCA,0.389
GGAGAUCAGCCGCCCCCACCCACACACACACCAAGAAAAGGCGGGGUGAGGGAGGGAUCUAAGUAGAAAAAGAUGAGUUCUGAUCUUCUUUAUCUCUUCUAAACUGUGUU,0.401
AUCCCAAUAUCUGCCCUAAGUGAUUUUUGAGAACAGGGUUUCAUGUAUCCCAGCCAGCCUGGGUCUCACUGUAUAGCUGGAGAGACUUUCGAAAUUGUAUCCUUCUGACU,0.502

# A few entries again (set 2):
Sequence,E-score
ATCCCAAG,-0.18
ACGCCCTA,0.0664
TGTCGACA,-0.205
ATAACCCA,-0.189
AGCTTATA,-0.166
ATCTTGCA,-0.0563
CGAAGTAG,-0.0722
